Assay results pooled from the literature.
Each numbered part is a random draw from the data of one study; scales do not carry over between parts. Changes are numbered by the printed parent chain.
UniProt P32298, sequence (whole entry, looked up): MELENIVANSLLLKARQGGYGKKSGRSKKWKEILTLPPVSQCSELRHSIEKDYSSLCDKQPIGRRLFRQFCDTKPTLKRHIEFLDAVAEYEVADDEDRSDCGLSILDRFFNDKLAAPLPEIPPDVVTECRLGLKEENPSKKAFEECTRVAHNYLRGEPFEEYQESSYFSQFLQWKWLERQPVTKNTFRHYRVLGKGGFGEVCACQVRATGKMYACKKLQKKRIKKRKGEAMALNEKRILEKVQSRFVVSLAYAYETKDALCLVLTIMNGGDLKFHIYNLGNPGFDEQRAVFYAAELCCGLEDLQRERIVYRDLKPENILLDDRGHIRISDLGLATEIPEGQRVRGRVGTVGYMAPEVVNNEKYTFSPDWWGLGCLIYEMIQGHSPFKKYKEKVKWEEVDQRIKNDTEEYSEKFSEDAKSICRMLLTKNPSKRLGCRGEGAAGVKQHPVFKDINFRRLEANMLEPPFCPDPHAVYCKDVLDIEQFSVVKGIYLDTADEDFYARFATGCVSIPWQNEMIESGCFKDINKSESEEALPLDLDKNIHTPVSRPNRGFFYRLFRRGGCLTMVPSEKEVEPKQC

Set 1
Target: CCNA2, cyclin fold, Cln2 fusion (human)
Method: yeast growth competition, sequencing
Medium: yeast
Setting: strong parent motif
Baseline: not given
Reading: higher = stronger binding
Endpoint: normalised enrichment score
Parent: viral docking peptide; TSVRRALFTGGSD; partner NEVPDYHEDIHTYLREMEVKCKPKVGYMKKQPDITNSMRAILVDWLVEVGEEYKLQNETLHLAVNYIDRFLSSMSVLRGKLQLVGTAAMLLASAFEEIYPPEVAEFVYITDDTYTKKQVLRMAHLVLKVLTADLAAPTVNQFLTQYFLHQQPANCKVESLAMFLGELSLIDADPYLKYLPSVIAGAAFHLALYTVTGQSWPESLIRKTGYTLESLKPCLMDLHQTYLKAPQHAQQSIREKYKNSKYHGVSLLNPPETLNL
TSVHRALFTGGSD [R4H]: 1.73
TSVRRALFTGGMD [S12M]: 6.12
TSIRRALFTGGSD [V3I]: 5.07
TSVRRALFTGCSD [G11C]: 6.2
TSVRVALFTGGSD [R5V]: 2.24
TSVFRALFTGGSD [R4F]: 1.8
TSWRRALFTGGSD [V3W]: 3.2
TSVCRALFTGGSD [R4C]: 4.54

Set 2
Target: tungstate, free oxyanion
Method: microfluidic competitive inhibition
Medium: in vitro, cell-free expressed
Tested at: not given
Setting: derived from inhibition constants, unchanged parent 2230 nM
Reading: lower = stronger binding
Endpoint: oxyanion analog dissociation constant
Parent: PafA, mature enzyme, eGFP fusion (Elizabethkingia meningoseptica, UniProt Q9KJX5); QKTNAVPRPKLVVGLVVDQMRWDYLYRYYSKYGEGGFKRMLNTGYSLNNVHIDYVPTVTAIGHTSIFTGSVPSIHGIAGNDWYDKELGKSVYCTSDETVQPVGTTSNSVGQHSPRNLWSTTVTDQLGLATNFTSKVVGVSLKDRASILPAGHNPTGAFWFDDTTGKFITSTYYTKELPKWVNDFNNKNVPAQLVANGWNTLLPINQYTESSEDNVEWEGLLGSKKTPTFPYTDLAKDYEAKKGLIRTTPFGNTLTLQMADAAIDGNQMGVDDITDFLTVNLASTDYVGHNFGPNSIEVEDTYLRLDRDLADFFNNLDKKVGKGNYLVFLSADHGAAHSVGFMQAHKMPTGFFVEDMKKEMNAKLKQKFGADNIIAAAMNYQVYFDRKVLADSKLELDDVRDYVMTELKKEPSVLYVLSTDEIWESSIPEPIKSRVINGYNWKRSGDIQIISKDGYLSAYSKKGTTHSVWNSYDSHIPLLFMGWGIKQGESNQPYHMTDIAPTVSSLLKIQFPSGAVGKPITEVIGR
D300G: 1.09 µM
A458V: 2.68 µM
L478G: 1.3 µM
M347G: 899 nM
V91G: 10.7 µM
L244G: 1.6 µM
G323V: 2.17 µM
E34G: 2.27 µM

Single results of other studies
O=C1CCC(N2Cc3c(ccc4c3OCC43CCN(Cc4ccccc4)CC3)C2=O)C(=O)N1 (stereo not drawn)  bioavailability (male Sprague-Dawley rat, plasma; oral, 3 mg/kg): 49.2%
CCn1cnc2c(Nc3cccc(Cl)c3)nc(N[C@H]3CCCC[C@H]3N)nc21  remaining activity (GRK4 (Homo sapiens, UniProt P32298); enzyme activity, inhibitor; 0.5 µM; baseline: control): 96.2%

For quick reference, copied from above (set 1):
TSWRRALFTGGSD [V3W]: 3.2
TSVCRALFTGGSD [R4C]: 4.54
